Assay results from different studies.
A part holds a random share of what one study measured.
Sequence of UniProt Q6PHR2 (whole entry, looked up): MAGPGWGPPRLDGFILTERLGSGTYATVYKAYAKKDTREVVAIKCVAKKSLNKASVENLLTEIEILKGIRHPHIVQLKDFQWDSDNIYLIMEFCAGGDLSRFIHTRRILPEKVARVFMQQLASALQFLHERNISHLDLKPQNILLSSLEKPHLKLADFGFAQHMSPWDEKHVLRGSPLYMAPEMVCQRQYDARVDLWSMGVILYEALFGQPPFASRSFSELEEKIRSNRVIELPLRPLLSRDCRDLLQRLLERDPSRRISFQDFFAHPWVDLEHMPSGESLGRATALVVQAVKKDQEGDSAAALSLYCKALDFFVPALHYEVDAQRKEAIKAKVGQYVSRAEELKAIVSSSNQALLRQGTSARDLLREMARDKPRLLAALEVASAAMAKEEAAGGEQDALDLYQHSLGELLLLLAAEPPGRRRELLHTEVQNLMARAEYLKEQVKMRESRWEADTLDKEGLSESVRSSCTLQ
Sequence of UniProt P15735 (whole entry, looked up): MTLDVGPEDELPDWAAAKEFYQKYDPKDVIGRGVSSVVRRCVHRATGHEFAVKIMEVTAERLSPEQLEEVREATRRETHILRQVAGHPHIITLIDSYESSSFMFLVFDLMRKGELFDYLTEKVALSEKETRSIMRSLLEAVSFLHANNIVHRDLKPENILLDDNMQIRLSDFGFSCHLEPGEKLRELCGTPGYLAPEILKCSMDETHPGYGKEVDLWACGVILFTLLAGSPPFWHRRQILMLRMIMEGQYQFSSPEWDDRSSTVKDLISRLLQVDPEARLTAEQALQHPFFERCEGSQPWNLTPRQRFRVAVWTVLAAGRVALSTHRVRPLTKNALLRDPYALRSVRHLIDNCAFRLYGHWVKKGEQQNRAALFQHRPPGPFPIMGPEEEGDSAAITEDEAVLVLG
Sequence of UniProt P54760 (whole entry, looked up): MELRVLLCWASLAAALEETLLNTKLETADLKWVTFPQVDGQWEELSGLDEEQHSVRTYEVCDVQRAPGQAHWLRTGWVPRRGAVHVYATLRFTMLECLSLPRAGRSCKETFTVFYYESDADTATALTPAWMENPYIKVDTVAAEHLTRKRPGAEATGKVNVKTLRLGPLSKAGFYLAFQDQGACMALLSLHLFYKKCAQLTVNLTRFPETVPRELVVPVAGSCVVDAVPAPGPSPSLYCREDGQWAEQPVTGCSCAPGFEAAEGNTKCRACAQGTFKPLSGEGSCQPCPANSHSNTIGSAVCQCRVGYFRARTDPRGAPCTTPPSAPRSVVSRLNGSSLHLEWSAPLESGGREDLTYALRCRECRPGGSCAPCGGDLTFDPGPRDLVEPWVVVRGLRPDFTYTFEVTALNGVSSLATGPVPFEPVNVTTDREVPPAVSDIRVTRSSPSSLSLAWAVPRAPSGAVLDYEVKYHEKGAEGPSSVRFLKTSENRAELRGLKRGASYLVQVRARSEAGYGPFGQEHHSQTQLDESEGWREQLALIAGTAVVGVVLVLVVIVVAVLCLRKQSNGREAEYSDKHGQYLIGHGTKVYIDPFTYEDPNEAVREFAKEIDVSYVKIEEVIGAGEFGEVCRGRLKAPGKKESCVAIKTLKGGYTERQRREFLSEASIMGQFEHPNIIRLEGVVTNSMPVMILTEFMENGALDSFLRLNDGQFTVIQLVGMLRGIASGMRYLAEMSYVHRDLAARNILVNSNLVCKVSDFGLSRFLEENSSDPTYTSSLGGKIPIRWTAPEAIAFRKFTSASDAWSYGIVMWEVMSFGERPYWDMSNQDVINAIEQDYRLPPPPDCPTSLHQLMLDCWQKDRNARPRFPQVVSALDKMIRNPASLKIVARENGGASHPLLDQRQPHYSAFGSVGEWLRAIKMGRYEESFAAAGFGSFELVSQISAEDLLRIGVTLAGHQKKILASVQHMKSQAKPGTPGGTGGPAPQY

Series 1
Target: G protein-coupled receptor kinase 6 (GRK6, Homo sapiens, UniProt P43250)
Sequence of UniProt P43250 (whole entry, looked up): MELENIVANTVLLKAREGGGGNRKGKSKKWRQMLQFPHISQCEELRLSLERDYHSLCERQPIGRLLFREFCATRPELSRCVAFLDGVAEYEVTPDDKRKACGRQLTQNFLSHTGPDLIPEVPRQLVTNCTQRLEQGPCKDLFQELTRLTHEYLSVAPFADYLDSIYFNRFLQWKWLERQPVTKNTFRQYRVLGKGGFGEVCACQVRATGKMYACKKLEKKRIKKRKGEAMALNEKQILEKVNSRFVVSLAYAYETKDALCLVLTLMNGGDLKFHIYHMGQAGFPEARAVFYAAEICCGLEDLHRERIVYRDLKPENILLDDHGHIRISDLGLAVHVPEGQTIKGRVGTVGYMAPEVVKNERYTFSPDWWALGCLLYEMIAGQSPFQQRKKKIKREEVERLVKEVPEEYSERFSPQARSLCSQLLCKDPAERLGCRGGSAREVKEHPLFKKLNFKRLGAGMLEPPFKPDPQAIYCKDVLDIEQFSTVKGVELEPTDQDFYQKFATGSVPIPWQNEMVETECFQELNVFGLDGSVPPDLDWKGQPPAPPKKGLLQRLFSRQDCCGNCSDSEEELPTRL
Effect on: enzyme activity
Action: inhibitor
Tested at: 0.5 µM
Baseline: control
Structure (SMILES) | remaining activity
Cn1cnc2cc3c(Nc4cccc(Br)c4)ncnc3cc21 | 107%
COc1cc2ncnc(Nc3ccc(OCc4ccccc4)cc3)c2cc1OC | 104%
Cc1nc(Nc2ncc(C(=O)Nc3c(C)cccc3Cl)s2)cc(N2CCN(CCO)CC2)n1 | 101%
COc1cc2ncc(-c3ccccc3)nc2cc1OC | 92.8%
Cn1cc(/C=C2\C(=O)Nc3ccc(S(N)(=O)=O)cc32)c2ccccc21 | 47.2%
CCOc1cc2ncnc(Nc3cccc(Br)c3)c2cc1OCC | 96%
Cc1ccc(NC(=O)c2ccc(CN3CCN(C)CC3)cc2)cc1Nc1nccc(-c2cccnc2)n1 | 103%
COc1ccc(Cl)cc1NC(=O)Nc1cc(C)nc2ccccc12 | 105%
CN(C)CCCn1cc(C2=C(c3c[nH]c4ccccc34)C(=O)NC2=O)c2ccccc21 | 72%
O=C1NC(=O)/C(=C/c2ccc3nccnc3c2)S1 | 97%
CS(=O)(=O)CCNCc1ccc(-c2ccc3ncnc(Nc4ccc(OCc5cccc(F)c5)c(Cl)c4)c3c2)o1 | 101%
C[S+]([O-])c1ccc(-c2nc(-c3ccncc3)c(-c3ccc(F)cc3)[nH]2)cc1 (stereo not shown) | 102%
Nc1[nH]nc2nnc(-c3c(-c4ccccc4)nn4ccccc34)cc12 | 99.3%
CC(=O)O/N=C1/C(c2c(O)[nH]c3cc(Br)ccc23)=Nc2ccccc21 | 88.5%
O=C(Nc1ccc(Cl)cc1)c1ccccc1NCc1ccncc1 | 101%
O=c1cc(N2CCOCC2)oc2c1ccc1ccccc12 | 93.8%
CC(C)[C@H](CO)Nc1nc(Nc2cccc(Cl)c2)c2ncn(C(C)C)c2n1 | 98.3%
CCC(=O)Nc1ccc2ncnc(Nc3cccc(Br)c3)c2c1 | 97.6%
COc1ccc(-c2cnc3c(-c4ccsc4)cnn3c2)cc1 | 99.9%
COc1cc2ncnc(N3CCN(C(=O)Nc4ccc(Oc5ccccc5)cc4)CC3)c2cc1OC | 96.4%
CCN1/C(=C/C(C)=O)Sc2ccc(OC)cc21 | 103%
CC(C)c1nn(-c2c(Cl)cccc2Cl)c2nc(Cc3ccc(OCCO)cc3)[nH]c(=O)c12 | 101%

Series 2
SMILES: NS(=O)(=O)c1cc(NC(=O)Cc2ccccc2)ccc1Oc1cccc(Cl)c1
Effect on: cell-free assay
Method: competition with immobilised ligand
Tested at: 1 µM
target | remaining binding [%]
ULK3 (Homo sapiens, UniProt Q6PHR2) | 74
TSSK3 (Homo sapiens, UniProt Q96PN8) | 87
FYN (Homo sapiens, UniProt P06241) | 69
Cyclin-dependent kinase 4, with cyclin D1 (CDK4, Homo sapiens, UniProt P11802) | 74
PIM2 (Homo sapiens, UniProt Q9P1W9) | 100
EGFR (Homo sapiens, UniProt P00533) | 84
PHKG2 (Homo sapiens, UniProt P15735) | 100
MTOR (Homo sapiens, UniProt P42345) | 92
PAK3 (Homo sapiens, UniProt O75914) | 85
GRK4 (Homo sapiens, UniProt P32298) | 100
PIM3 (Homo sapiens, UniProt Q86V86) | 96
EPHA6 (Homo sapiens, UniProt Q9UF33) | 83
MAP3K9 (Homo sapiens, UniProt P80192) | 100
NEK1 (Homo sapiens, UniProt Q96PY6) | 93
COQ8B (Homo sapiens, UniProt Q96D53) | 100
MAPK10 (Homo sapiens, UniProt P53779) | 89
WNK2 (Homo sapiens, UniProt Q9Y3S1) | 0
AKT3 (Homo sapiens, UniProt Q9Y243) | 100
EPHA3 (Homo sapiens, UniProt P29320) | 78
MAP4K4 (Homo sapiens, UniProt O95819) | 71
IRAK4 (Homo sapiens, UniProt Q9NWZ3) | 91
NUAK2 (Homo sapiens, UniProt Q9H093) | 91
Tyrosine-protein kinase ABL1, phosphorylated (ABL1, Homo sapiens, UniProt P00519, F317L) | 72
Tyrosine-protein kinase ABL1, non-phosphorylated (ABL1, Homo sapiens, UniProt P00519, Q252H) | 100
EPHB4 (Homo sapiens, UniProt P54760) | 98

Series 3
Target: Calcium/calmodulin-dependent protein kinase type II subunit alpha (CAMK2A, Homo sapiens, UniProt Q9UQM7)
Sequence of UniProt Q9UQM7 (whole entry, looked up): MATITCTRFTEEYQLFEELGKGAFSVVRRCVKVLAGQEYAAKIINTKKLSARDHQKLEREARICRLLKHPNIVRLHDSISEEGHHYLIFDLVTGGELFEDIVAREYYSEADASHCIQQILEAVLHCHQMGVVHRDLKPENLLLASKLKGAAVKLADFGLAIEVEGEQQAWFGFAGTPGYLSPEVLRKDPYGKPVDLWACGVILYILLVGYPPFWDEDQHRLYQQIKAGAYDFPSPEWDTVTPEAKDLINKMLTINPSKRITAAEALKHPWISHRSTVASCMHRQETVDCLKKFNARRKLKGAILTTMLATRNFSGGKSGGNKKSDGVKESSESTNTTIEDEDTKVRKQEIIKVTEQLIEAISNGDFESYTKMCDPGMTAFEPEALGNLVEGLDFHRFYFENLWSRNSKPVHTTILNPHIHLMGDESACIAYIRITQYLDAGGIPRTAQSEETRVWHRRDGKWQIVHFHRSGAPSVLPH
Effect on: enzyme activity
Action: inhibitor
Tested at: 10 µM
SMILES | inhibition [%]
CC(C)=CCC[C@H](C)[C@@H]1CC[C@]2(C)C3=C(CC[C@@]12C)[C@@]1(C)CC[C@H](O)C(C)(C)[C@@H]1CC3 | 47
CC(C)[C@H](N)C(=O)O | -3
COC(=O)CC[C@@H](C)[C@H]1CC[C@H]2[C@@H]3[C@H](O)C[C@@H]4C[C@H](O)CC[C@]4(C)[C@H]3C[C@H](O)[C@]12C | -30
C/C(=C\c1csc(C)n1)[C@@H]1C[C@@H]2O[C@]2(C)CCC[C@H](C)[C@H](O)[C@@H](C)C(=O)C(C)(C)[C@@H](O)CC(=O)N1 | -9
OC(Cn1cncn1)(Cn1cncn1)c1ccc(F)cc1F | -11
CC(C)=CCC[C@](C)(O[C@@H]1O[C@H](CO[C@@H]2O[C@H](CO)[C@@H](O)[C@H](O)[C@H]2O)[C@@H](O)[C@H](O)[C@H]1O)[C@H]1CC[C@]2(C)[C@@H]1[C@H](O)C[C@@H]1[C@@]3(C)CC[C@H](O[C@@H]4O[C@H](CO)[C@@H](O)[C@H](O)[C@H]4O[C@@H]4O[C@H](CO)[C@@H](O)[C@H](O)[C@H]4O[C@@H]4OC[C@@H](O)[C@H](O)[C@H]4O)C(C)(C)[C@@H]3CC[C@]12C | 26
COc1cc(/C=C/C(=O)O[C@H]2CC[C@]34C[C@]35CC[C@]3(C)[C@@H]([C@H](C)CCC=C(C)C)CC[C@@]3(C)[C@@H]5CC[C@H]4C2(C)C)ccc1O | 0
C[C@@H]1CC[C@]2(C(=O)O)CC[C@]3(C)C(=CC[C@@H]4[C@@]5(C)CC[C@H](O)[C@@](C)(CO)[C@@H]5CC[C@]43C)[C@@H]2[C@]1(C)O | -11

Series 4
Target: Beta-1 adrenergic receptor (ADRB1, Homo sapiens, UniProt P08588)
Sequence of UniProt P08588 (whole entry, looked up): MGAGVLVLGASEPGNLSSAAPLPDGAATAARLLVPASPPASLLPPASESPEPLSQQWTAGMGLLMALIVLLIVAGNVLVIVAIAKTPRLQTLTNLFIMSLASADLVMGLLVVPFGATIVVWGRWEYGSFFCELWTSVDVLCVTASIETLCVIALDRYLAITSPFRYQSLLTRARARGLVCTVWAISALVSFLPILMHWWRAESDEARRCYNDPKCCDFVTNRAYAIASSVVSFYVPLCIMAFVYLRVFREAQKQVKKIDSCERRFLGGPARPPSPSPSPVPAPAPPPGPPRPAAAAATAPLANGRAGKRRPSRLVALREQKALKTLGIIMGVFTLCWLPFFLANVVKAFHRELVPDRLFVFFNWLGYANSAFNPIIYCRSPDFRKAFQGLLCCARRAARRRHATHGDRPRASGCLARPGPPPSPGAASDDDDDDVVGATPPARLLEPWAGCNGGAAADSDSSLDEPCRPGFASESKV
Action: antagonist
SMILES | IC50 [µM]
O=c1cc(N2CCOCC2)oc2c(NCc3ccc(F)cc3)nccc12 | ≥ 100
COc1ccccc1N1CCN(C(=O)C[C@@H]2O[C@H](CNC(=O)c3ccc(N(C)C)cc3)[C@@H](O)[C@H]2O)CC1 | ≥ 100
O=C(Nc1cc(-c2ccccn2)nn1-c1ccccc1)c1ccc2ccccc2n1 | ≥ 100
COc1ccc(CN(C)Cc2nc(C)no2)c(OCC(O)CN2CCCC2)c1 (stereo not shown) | ≥ 100
COc1ccc(-c2cc(=O)oc3cc(OCC(N)=O)ccc23)cc1 | ≥ 100
O=C(Nc1nc(-c2ccccc2OC(F)F)cs1)c1cnccn1 | ≥ 100
COc1ccccc1N1CCC(N2C(=O)[C@H]3CCCN3C2=O)C1 (stereo partly shown) | ≥ 100
OC(COc1cccc2[nH]ccc12)Cn1cc(-n2cccc2)cn1 (stereo not shown) | ≥ 100
CC(C)(O)c1cc(CC2(NCc3cnc4ccccc4c3)COC2)no1 | ≥ 100
COC[C@@]12CC[C@@H](N3CCOCC3)C[C@H]1CCN(c1nccc(NC(C)C)n1)C2 | ≥ 100
COc1ccc(CNCC(O)COc2ccc3[nH]c(=O)ccc3c2)cc1OC (stereo not shown) | ≥ 100
Cc1cc2ncn(CC(O)COc3ccc4ccccc4c3)c2cc1C (stereo not shown) | ≥ 100
CC(Cc1ccccc1)NN (stereo not shown) | ≥ 100
CCOc1cccc(C(=O)N2CCN(c3ccccc3OC)CCC2C)c1 (stereo not shown) | ≥ 100
OC1(c2cccc(C(F)(F)F)c2)CCN(Cc2nc(-c3cccs3)no2)CC1 | ≥ 100
